Assay results collected from several papers.
Lines come from different studies, so protocols differ. Values joined by “and” are separate records of one study, mostly repeats; a detail may differ. ± marks the error that the study gave.
B1: PPP2R5A D205R/E251K (Homo sapiens, UniProt Q15172-1); chain MSSSSPPAGAASAAISASEKVDGFTRKSVRKAQRQKRSQGSSQFRSQGSQAELHPLPQLKDATSNEQQELFCQKLQQCCILFDFMDSVSDLKSKEIKRATLNELVEYVSTNRGVIVESAYSDIVKMISANIFRTLPPSDNPDFDPEEDEPTLEASWPHIQLVYEFFLRFLESPDFQPSIAKRYIDQKFVQQLLELFDSEDPRERRFLKTVLHRIYGKFLGLRAFIRKQINNIFLRFIYETEHFNGVAELLKILGSIINGFALPLKAEHKQFLMKVLIPMHTAKGLALFHAQLAYCVVQFLEKDTTLTEPVIRGLLKFWPKTCSQKEVMFLGEIEEILDVIEPTQFKKIEEPLFKQISKCVSSSHFQVAERALYFWNNEYILSLIEENIDKILPIMFASLYKISKEHWNPTIVALVYNVLKTLMEMNGKLFDDLTSSYKAERQREKKKELEREELWKKLEELKLKKALEKQNSAYNMHSILSNTSAE
B2: Lqq V toxin, rhodamine on Lys60 (Leiurus quinquestriatus quinquestriatus, UniProt P01481); ends and bridges not checked; also: 125I-labelled, site not given here; rhodamine on Lys60; chain LKDGYIVDDKNCTFFCGRNAYCNDECKKKGGESGYCQWASPYGNACWCYKLPDRVSIKEK(6‑carboxytetramethylrhodamine acetamide)GRCN
B3: PPP2R5A E106R (Homo sapiens, UniProt Q15172-1); chain MSSSSPPAGAASAAISASEKVDGFTRKSVRKAQRQKRSQGSSQFRSQGSQAELHPLPQLKDATSNEQQELFCQKLQQCCILFDFMDSVSDLKSKEIKRATLNELVRYVSTNRGVIVESAYSDIVKMISANIFRTLPPSDNPDFDPEEDEPTLEASWPHIQLVYEFFLRFLESPDFQPSIAKRYIDQKFVQQLLELFDSEDPRERDFLKTVLHRIYGKFLGLRAFIRKQINNIFLRFIYETEHFNGVAELLEILGSIINGFALPLKAEHKQFLMKVLIPMHTAKGLALFHAQLAYCVVQFLEKDTTLTEPVIRGLLKFWPKTCSQKEVMFLGEIEEILDVIEPTQFKKIEEPLFKQISKCVSSSHFQVAERALYFWNNEYILSLIEENIDKILPIMFASLYKISKEHWNPTIVALVYNVLKTLMEMNGKLFDDLTSSYKAERQREKKKELEREELWKKLEELKLKKALEKQNSAYNMHSILSNTSAE
Chain of UniProt P00747 (whole entry, looked up): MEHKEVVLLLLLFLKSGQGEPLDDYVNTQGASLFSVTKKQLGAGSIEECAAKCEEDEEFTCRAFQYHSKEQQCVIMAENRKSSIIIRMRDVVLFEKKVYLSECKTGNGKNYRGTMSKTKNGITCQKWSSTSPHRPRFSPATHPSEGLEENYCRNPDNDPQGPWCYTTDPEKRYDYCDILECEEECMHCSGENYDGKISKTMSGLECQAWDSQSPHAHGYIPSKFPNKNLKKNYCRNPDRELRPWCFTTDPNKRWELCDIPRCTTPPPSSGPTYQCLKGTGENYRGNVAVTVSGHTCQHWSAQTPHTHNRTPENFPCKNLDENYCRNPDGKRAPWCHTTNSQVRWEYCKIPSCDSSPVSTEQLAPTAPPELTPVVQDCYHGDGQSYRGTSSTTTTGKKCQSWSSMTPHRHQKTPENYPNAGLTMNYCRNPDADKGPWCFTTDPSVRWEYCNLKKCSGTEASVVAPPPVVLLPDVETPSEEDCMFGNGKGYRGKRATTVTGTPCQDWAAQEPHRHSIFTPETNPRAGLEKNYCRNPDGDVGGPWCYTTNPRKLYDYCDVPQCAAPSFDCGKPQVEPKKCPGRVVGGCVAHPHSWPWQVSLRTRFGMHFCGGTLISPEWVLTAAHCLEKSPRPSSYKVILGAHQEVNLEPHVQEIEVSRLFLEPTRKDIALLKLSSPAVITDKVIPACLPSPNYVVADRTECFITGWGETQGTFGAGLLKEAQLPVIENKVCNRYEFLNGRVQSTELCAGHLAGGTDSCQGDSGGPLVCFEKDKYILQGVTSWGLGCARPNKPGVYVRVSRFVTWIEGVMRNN
Chain of UniProt P02751 (whole entry, looked up): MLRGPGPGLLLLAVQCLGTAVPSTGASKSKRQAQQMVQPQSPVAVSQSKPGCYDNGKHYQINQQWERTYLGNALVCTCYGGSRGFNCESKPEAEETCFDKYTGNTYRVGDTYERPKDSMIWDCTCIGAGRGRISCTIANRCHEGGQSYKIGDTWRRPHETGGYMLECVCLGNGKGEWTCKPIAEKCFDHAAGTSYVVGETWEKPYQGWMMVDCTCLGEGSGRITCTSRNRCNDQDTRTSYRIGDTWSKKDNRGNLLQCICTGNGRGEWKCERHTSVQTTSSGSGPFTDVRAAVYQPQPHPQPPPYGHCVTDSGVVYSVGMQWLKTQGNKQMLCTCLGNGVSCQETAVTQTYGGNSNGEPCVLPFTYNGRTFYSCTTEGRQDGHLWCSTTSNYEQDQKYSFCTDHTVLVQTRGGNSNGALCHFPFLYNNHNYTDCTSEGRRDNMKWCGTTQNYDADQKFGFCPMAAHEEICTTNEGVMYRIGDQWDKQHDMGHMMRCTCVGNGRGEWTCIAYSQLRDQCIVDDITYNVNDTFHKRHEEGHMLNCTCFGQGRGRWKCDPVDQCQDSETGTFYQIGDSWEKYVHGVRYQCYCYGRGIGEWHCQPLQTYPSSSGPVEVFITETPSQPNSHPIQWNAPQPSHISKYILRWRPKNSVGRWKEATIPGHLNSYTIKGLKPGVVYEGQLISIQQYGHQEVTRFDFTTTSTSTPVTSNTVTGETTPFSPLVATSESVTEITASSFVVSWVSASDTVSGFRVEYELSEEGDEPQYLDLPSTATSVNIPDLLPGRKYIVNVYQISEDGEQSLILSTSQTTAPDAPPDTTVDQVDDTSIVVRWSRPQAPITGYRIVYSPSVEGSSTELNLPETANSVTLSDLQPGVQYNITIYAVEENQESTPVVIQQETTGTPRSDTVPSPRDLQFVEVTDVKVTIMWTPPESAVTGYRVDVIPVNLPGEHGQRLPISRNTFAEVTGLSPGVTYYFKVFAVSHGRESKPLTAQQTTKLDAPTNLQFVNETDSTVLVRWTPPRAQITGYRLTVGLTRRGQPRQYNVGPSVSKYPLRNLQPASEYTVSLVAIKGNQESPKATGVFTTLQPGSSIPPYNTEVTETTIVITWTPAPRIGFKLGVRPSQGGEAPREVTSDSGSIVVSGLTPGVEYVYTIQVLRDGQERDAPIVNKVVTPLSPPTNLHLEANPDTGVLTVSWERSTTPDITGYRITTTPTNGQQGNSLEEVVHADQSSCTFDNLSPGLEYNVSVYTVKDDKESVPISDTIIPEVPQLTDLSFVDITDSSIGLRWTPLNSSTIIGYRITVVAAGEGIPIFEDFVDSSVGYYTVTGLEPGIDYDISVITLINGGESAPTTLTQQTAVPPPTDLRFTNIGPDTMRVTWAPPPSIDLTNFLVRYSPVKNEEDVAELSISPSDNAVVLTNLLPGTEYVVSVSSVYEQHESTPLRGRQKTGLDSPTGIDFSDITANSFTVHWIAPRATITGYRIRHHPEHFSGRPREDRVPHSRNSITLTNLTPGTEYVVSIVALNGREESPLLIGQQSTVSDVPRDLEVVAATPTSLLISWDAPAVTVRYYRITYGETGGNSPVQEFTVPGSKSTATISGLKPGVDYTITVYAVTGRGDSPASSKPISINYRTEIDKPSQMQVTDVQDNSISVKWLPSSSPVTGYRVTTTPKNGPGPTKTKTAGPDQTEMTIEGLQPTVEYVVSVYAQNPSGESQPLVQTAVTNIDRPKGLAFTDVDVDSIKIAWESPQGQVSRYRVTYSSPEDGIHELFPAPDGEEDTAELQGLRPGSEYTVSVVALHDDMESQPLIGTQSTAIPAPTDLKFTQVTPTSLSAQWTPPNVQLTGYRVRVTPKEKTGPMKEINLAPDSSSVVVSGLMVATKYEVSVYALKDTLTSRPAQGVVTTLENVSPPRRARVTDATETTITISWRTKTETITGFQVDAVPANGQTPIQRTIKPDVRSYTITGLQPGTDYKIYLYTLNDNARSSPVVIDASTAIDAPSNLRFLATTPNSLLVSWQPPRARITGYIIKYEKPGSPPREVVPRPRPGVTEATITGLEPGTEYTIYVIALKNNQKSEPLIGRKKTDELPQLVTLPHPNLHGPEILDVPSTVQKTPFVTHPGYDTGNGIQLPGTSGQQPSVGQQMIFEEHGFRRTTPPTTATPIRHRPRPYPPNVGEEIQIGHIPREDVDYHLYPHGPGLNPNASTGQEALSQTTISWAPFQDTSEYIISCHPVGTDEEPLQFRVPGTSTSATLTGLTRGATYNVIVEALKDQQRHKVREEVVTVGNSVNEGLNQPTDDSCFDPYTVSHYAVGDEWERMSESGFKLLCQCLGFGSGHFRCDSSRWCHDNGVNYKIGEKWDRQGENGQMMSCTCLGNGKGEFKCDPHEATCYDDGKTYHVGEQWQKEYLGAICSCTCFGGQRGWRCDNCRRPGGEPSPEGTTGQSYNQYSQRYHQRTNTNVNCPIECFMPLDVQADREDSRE
Chain of UniProt P63096 (whole entry, looked up): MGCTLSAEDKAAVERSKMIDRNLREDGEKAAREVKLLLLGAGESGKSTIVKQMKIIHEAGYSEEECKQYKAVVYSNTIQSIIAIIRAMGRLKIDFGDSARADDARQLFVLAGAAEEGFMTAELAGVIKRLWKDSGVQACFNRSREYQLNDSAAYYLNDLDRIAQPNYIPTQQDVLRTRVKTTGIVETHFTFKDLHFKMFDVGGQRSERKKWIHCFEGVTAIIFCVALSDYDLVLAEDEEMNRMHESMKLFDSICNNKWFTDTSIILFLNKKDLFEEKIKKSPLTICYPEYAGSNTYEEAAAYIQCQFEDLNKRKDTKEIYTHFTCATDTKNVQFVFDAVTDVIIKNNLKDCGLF
Chain of UniProt P04737 (whole entry, looked up): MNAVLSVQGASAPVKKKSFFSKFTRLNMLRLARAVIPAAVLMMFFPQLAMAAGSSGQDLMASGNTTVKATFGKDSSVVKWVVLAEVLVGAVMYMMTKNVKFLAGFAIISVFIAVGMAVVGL
Chain of UniProt P06400 (whole entry, unmodified, looked up): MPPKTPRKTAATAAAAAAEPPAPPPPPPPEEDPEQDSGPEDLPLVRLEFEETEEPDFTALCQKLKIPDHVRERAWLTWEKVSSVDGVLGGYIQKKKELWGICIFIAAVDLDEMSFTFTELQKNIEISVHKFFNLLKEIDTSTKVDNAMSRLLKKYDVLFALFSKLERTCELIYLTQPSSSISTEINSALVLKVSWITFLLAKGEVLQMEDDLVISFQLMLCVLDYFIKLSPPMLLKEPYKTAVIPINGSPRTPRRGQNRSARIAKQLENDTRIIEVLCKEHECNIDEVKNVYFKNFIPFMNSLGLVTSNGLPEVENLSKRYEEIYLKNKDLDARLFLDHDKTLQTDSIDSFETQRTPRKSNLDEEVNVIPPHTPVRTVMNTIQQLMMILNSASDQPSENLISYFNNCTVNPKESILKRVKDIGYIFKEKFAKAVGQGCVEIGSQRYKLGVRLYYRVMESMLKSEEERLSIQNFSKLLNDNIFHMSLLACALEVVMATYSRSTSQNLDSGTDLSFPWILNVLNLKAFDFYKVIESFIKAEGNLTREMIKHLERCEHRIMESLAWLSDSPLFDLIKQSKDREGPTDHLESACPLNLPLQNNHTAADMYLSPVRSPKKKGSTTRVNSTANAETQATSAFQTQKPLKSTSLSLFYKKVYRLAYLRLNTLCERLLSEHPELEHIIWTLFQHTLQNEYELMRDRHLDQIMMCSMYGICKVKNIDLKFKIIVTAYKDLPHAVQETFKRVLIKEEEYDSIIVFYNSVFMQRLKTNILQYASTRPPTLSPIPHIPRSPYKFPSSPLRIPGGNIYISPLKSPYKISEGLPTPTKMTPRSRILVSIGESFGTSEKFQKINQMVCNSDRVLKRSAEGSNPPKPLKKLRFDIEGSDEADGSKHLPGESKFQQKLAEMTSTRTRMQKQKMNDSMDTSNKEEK

| Molecule | target or system | test | test system | setting | scale | quantity | value |
| --- | --- | --- | --- | --- | --- | --- | --- |
| FAVDAAKAY |  | T cell recognition, HLA-B*07:02 tetramer staining | peptide, CD8+ T cells, COVID-19 convalescent human subjects, HLA-B*07:02 | dose not given, 5 subjects tested |  | tetramer-reactive CD8+ T cell count | 4 |
| B1 (PPP2R5A D205R/E251K) | Vif/CBFB/ELOB/ELOC R33D (HIV-1/Homo sapiens) | pull-down |  |  |  | binding | binds |
| GTCTTTAATAATTAAACTAGTGTCTTGACAGATGTAAACAACAGGTATAAAC (dsDNA) | niaR 1-174 T17A (Streptococcus mutans, UniProt Q8DVX8) | EMSA | double-stranded DNA, one strand shown |  |  | binding | binds |
| E1A Motif-linker-motif domain (bat adenovirus) | RB1 AB domain 372-787 del582-642 (Homo sapiens, UniProt P06400) | E2F displacement, fluorescence polarisation |  |  | reference: wild-type E1A, higher = weaker binding | relative KD | 1.5 |
| B2 | Scn2a whole channel (Rattus norvegicus, UniProt P04775) | radioligand | peptide |  |  | Kd | 0.0065 µM |
| HSP90 fragment E566A (Plasmodium falciparum) | itself | mass photometry |  |  |  | subunits per oligomer | 2 |
| H-RNPHLMGIGGGLAGESGETTPK-OH (fnz 370-391 (Streptococcus zooepidemicus)) | FN1 516-608, N-glycans trimmed to GlcNAc (Homo sapiens, UniProt P02751) | competition with ligand, fluorescence polarisation | peptide | pH 7.4, 25 °C, NaCl 150 mM, competition |  | Kd | 1.9 ± 0.1 µM |
| Dengue virus E protein virion, UV-inactivated (Dengue virus serotype 2) | PLG 376-562 (Homo sapiens, UniProt P00747) | BLI |  |  |  | Kd | 0.0081 µM and 0.0098 µM |
| HSP90 fragment G515A (Plasmodium falciparum) | itself | mass photometry |  |  |  | subunits per oligomer | 2 |
| IgG7 K382Q (Equus caballus) | seM lacks anchor domain (Streptococcus equi) | SPR |  |  |  | Ka | 2.91e+06 M⁻¹ |
| cdiA fragment H178A (Escherichia coli) | traA (Escherichia coli, UniProt P04737) | conjugation |  | 1 µM | reference: mock-treated cells, higher = more mating | mating efficiency | 2.5 fold |
| cbpA fragment (Streptococcus pneumoniae) | CFH 508-567 E523A (Homo sapiens, UniProt P08603) | ITC |  |  |  | ΔH | -15.5 ± 0.6 kcal/mol |
| LiaS fragment T120A (Enterococcus faecium) | LiaR peptide residues 49-57, FITC label (Enterococcus faecium) | MST |  | no ATP, together with: FITC peptide 84 nM |  | Kd | > 1000 µM |
| B3 (PPP2R5A E106R) | Vif/CBFB/ELOB/ELOC R127E (HIV-1/Homo sapiens) | pull-down |  |  |  | binding | binds |
| STSAFVETV |  | T cell recognition, HLA-B*07:02 tetramer staining | peptide, CD8+ T cells, COVID-19 convalescent human subjects, HLA-B*07:02 | dose not given, 5 subjects tested |  | tetramer-reactive CD8+ T cell count | 0 |
| BILF1 A125F (Epstein-Barr virus) | GNAI1 (Homo sapiens, UniProt P63096) | IP3 accumulation | HEK293 |  | reference: wild-type BILF1, higher = more signaling | relative Gi signaling | 76.8% |
